{"data": "Results of several laboratories", "note": "Each numbered part is a random draw from the data of one study; scales do not carry over between parts. Several values in a cell are separate wells, animals, samples, runs or records.", "UniProt O14920, sequence (whole entry, looked up)": "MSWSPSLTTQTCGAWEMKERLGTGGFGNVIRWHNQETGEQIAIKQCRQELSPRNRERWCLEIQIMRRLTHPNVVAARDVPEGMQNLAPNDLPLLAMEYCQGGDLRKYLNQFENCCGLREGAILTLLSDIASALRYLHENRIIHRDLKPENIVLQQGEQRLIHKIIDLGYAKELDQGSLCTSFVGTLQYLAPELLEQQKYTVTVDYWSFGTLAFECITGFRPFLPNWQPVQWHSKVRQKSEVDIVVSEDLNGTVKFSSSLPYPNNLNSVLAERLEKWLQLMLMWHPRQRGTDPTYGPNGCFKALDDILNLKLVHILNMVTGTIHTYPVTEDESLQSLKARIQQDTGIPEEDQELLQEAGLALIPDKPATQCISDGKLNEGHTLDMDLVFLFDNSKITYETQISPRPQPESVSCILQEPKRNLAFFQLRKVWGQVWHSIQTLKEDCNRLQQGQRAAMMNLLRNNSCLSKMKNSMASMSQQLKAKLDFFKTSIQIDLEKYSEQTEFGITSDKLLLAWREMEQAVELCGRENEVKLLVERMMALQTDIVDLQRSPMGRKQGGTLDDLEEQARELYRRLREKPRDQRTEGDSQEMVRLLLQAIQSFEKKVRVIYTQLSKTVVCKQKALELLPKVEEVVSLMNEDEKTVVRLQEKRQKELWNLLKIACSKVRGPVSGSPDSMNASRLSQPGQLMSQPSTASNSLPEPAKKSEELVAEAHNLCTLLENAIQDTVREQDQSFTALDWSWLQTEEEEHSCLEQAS", "UniProt P53778, sequence (whole entry, looked up)": "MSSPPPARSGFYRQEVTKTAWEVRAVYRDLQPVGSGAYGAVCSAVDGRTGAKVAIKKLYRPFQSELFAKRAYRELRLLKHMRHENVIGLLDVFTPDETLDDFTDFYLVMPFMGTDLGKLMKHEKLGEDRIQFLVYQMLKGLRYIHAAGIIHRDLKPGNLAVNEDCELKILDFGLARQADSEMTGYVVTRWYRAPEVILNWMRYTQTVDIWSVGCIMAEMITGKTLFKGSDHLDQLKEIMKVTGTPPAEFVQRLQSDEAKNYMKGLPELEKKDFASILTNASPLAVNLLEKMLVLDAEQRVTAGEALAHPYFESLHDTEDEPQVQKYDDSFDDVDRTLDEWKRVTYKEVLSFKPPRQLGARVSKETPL", "UniProt O75460, sequence (whole entry, looked up)": "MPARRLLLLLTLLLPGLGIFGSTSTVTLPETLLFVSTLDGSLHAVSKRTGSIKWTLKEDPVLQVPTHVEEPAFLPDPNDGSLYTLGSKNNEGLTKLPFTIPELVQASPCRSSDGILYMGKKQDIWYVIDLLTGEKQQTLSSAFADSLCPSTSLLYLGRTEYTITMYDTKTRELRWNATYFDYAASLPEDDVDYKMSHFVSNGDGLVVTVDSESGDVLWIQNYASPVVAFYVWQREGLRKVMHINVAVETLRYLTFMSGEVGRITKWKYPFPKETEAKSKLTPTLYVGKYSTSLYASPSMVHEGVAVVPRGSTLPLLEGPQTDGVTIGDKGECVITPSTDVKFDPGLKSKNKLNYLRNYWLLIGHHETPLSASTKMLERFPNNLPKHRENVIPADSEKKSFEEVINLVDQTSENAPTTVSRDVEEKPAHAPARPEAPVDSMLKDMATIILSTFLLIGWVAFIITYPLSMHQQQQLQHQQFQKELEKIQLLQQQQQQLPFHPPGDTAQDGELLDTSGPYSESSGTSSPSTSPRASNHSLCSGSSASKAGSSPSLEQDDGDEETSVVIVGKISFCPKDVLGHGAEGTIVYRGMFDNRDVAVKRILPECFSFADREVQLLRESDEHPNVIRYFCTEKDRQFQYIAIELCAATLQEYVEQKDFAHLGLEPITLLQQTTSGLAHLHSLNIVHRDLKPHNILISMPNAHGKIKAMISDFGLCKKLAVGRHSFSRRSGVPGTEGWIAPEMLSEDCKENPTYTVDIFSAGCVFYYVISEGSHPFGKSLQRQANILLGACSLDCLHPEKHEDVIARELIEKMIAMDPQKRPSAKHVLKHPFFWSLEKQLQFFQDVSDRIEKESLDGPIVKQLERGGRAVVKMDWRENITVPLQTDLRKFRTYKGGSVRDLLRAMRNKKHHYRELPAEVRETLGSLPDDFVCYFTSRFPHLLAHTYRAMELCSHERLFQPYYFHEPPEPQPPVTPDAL", "UniProt Q13464, sequence (whole entry, looked up)": "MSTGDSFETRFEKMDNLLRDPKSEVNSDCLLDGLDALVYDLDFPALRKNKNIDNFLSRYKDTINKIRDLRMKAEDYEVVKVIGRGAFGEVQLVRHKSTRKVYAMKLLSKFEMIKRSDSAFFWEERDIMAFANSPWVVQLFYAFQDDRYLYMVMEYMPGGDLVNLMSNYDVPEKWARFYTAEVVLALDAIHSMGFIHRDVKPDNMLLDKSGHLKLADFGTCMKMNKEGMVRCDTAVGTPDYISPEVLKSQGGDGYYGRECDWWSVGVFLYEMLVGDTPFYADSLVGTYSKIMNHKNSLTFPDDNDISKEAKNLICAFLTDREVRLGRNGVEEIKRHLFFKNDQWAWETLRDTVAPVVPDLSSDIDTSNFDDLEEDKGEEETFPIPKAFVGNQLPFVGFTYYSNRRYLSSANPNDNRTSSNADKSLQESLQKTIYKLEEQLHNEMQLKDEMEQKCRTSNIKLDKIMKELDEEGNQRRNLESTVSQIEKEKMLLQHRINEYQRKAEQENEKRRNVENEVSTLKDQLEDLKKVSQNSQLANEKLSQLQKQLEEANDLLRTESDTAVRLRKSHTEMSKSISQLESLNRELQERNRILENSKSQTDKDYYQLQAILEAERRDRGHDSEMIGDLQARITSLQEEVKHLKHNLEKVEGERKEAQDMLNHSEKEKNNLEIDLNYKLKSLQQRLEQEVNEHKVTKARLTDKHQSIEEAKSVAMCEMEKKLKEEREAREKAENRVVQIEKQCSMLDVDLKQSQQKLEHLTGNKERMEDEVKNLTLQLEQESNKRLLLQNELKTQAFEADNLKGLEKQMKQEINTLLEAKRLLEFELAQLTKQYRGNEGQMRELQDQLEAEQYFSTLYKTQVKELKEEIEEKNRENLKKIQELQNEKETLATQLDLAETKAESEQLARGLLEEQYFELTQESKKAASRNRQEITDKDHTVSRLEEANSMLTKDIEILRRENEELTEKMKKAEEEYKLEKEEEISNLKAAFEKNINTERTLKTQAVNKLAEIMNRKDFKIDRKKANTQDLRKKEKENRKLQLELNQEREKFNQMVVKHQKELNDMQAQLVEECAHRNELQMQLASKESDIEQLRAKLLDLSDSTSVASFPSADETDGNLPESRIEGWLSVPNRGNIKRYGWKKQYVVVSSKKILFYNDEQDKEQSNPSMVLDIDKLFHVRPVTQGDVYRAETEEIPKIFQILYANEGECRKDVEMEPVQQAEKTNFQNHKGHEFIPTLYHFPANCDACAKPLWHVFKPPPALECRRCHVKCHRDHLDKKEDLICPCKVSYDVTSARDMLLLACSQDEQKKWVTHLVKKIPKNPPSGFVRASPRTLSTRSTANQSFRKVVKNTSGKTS", "UniProt Q99755, sequence (whole entry, looked up)": "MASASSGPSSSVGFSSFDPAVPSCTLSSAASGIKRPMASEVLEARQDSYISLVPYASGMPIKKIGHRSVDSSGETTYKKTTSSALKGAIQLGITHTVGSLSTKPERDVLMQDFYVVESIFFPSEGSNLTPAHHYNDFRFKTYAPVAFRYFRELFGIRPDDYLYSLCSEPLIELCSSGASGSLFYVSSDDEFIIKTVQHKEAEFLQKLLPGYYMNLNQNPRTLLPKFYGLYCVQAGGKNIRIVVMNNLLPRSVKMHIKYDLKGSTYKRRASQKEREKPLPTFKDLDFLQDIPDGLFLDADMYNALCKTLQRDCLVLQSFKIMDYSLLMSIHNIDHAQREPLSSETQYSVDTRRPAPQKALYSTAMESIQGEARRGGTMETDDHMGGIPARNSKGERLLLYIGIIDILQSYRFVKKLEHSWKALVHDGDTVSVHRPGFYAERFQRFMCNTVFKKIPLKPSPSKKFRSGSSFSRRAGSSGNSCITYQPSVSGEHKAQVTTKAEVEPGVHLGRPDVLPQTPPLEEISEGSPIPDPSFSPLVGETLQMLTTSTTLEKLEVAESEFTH", "UniProt P42336, sequence (whole entry, looked up)": "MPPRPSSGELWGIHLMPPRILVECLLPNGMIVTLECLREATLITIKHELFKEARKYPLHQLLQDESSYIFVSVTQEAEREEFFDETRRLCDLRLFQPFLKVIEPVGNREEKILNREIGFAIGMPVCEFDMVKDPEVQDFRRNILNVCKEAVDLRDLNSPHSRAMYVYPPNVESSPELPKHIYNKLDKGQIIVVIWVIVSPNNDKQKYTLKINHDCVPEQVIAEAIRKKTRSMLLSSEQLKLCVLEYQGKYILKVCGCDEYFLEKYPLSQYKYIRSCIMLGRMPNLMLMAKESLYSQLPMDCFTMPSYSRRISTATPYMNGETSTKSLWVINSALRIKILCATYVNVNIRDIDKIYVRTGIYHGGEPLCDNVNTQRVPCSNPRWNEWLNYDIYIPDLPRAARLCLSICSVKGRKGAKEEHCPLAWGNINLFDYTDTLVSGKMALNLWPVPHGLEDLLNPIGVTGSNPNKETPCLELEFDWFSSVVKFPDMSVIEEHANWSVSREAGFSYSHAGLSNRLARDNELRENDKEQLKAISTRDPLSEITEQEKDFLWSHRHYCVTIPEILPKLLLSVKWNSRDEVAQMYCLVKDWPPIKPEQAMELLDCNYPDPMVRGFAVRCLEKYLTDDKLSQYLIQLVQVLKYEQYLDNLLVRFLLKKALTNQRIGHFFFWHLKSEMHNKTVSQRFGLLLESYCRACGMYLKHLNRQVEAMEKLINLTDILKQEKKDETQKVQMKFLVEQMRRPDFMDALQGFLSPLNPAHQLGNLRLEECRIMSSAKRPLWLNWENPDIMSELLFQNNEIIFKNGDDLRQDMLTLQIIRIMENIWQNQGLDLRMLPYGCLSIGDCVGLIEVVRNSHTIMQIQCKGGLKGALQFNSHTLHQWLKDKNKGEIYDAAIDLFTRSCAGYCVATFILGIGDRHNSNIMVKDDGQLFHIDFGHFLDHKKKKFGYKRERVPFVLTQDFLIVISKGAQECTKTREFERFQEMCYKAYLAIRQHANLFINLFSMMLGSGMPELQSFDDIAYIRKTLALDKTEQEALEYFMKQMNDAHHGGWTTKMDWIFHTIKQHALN"}
{"data": "Study 1", "host": "human", "sample": "microsomes or S9", "tested at": "2 µM", "time": "0.5 h"}
{"SMILES": "CC(C)CCN1CC2(CCCN(C(=O)c3ccc(=O)n(C)n3)C2)CCC1=O (centres unmarked)", "remaining compound": "62.5%"}
{"SMILES": "COc1cc(OC)cc(N2CCC(N(C)C(=O)Cc3c(N)nc(C)[nH]c3=O)C2)c1 (centres unmarked)", "remaining compound": "79.8%"}
{"SMILES": "O=[N+]([O-])c1cccc(F)c1COc1cccc(C(F)(F)F)c1", "remaining compound": "32.6%"}
{"SMILES": "CN(CCC1CCOCC1)S(=O)(=O)c1cnn(C)c1", "remaining compound": "> 100%"}
{"SMILES": "Cc1nn(C)cc1Nc1nnc(Cn2nc(C(F)(F)F)c(Cl)c2C)s1", "remaining compound": "58.9%"}
{"data": "Study 2", "organism": "Sarcocystis neurona", "effect on": "parasite activity", "tested at": "10 µM", "time": "96 h"}
{"SMILES": "C[n+]1ccccc1/C=N/O", "activity class": "inactive"}
{"SMILES": "C[C@H](CCC(=O)O)[C@H]1CC[C@H]2[C@@H]3[C@@H](O)C[C@@H]4C[C@H](O)CC[C@]4(C)[C@H]3CC[C@]12C", "activity class": "inactive"}
{"SMILES": "O=c1[nH]c(=O)n(C2CCCO2)cc1F (centres unmarked)", "activity class": "inactive"}
{"SMILES": "CN1CCN(CCCN2c3ccccc3Sc3ccc(C(F)(F)F)cc32)CC1", "activity class": "inactive"}
{"SMILES": "CCCCc1nc(Cl)c(CO)n1Cc1ccc(-c2ccccc2-c2nn[nH]n2)cc1", "activity class": "inactive"}
{"SMILES": "C[C@]12C=CC(=O)C=C1CC[C@@H]1[C@@H]2C(=O)C[C@@]2(C)[C@H]1CC[C@]2(O)C(=O)CO", "activity class": "inactive"}
{"SMILES": "COCCCC/C(=N\\OCCN)c1ccc(C(F)(F)F)cc1", "activity class": "inactive"}
{"data": "Study 3", "Compound": "CO[C@@H](C)c1c(Nc2ccc([C@@H](N(C)C(=O)C3CCS(=O)(=O)CC3)C(F)(F)F)cc2)cnc2cc(Cl)nn12", "method": "competition with immobilised ligand", "tested at": "1 µM"}
{"target": "ROCK1 (Homo sapiens, UniProt Q13464)", "test": "cell-free assay", "remaining binding [%]": 100}
{"target": "EPHB3 (Homo sapiens, UniProt P54753)", "test": "cell-free assay", "remaining binding [%]": 100}
{"target": "PIP5K1A (Homo sapiens, UniProt Q99755)", "test": "cell-free assay", "remaining binding [%]": 89}
{"target": "MAPK12 (Homo sapiens, UniProt P53778)", "test": "cell-free assay", "remaining binding [%]": 92}
{"target": "IKBKB (Homo sapiens, UniProt O14920)", "test": "cell-free assay", "remaining binding [%]": 100}
{"target": "CDK15 (Homo sapiens, UniProt Q96Q40)", "test": "cell-free assay", "remaining binding [%]": 94}
{"target": "PIK3CA (Homo sapiens, UniProt P42336)", "test": "cell-free assay", "remaining binding [%]": 92}
{"target": "CLK2 (Homo sapiens, UniProt P49760)", "test": "cell-free assay", "remaining binding [%]": 100}
{"target": "ERN1 (Homo sapiens, UniProt O75460)", "test": "cell-free assay", "remaining binding [%]": 100}
{"target": "MAPK13 (Homo sapiens, UniProt O15264)", "test": "cell-free assay", "remaining binding [%]": 100}
{"target": "HIPK2 (Homo sapiens, UniProt Q9H2X6)", "test": "cell-free assay", "remaining binding [%]": 100}
{"target": "DAPK3 (Homo sapiens, UniProt O43293)", "test": "binding", "remaining binding [%]": 47}
{"target": "Myosin-IIIb (MYO3B, Homo sapiens, UniProt Q8WXR4)", "test": "cell-free assay", "remaining binding [%]": 100}
{"target": "LATS1 (Homo sapiens, UniProt O95835)", "test": "cell-free assay", "remaining binding [%]": 98}
{"data": "Study 4", "cell line": "mouse MPNST tumor cells", "method": "high-content nuclear imaging", "item": "cell number", "tested at": "10 µM", "time": "12 h", "setting": "mean of 2 replicates", "reference": "plate mean", "direction": "higher = more cells"}
{"Structure (SMILES)": "N[C@@H](CCNCc1ccc(Cl)cc1)C(=O)N1CCCCC1", "nuclei count": "1.61 z-score"}
{"Structure (SMILES)": "O=C(Nc1ccc(F)cc1)N1CCc2ccccc2C1c1ccc(C(F)(F)F)cc1 (centres unmarked)", "nuclei count": "1.4 z-score"}
{"Structure (SMILES)": "CN(C(=O)C(Cl)Cl)c1ccc(OC(=O)c2ccco2)cc1", "nuclei count": "0.0117 z-score"}
{"Structure (SMILES)": "Nc1ncnc2c1ncn2C1OC(C(=O)N2CCN(CC(=O)Nc3cccc4c3CNC4=O)CC2)C(O)C1O (centres unmarked)", "nuclei count": "0.364 z-score"}
{"Structure (SMILES)": "O=C(O)CCN(O)C(=O)CCCCCCCCC1CC1", "nuclei count": "0.337 z-score"}
{"Structure (SMILES)": "O=C(O)c1cc(/N=N/c2ccc(S(=O)(=O)Nc3ccccn3)cc2)ccc1O", "nuclei count": "1.2 z-score and 1.09 z-score"}
{"note": "Repeated from above (study 3):"}
{"target": "CLK2 (Homo sapiens, UniProt P49760)", "test": "cell-free assay", "remaining binding [%]": 100}
{"target": "ERN1 (Homo sapiens, UniProt O75460)", "test": "cell-free assay", "remaining binding [%]": 100}
